Values quoted from earlier work that unrelated publications cite.
Numbered parts are unrelated; values within a part may stem from several laboratories.

Block 1
Organism: Cryptosporidium parvum
Method: high-throughput screen
Tested at: concentration not given
Nc1nc(Cl)nc2c1ncn2[C@H]1C[C@H](O)[C@@H](CO)O1: activity “inactive”.
For C[C@H](CCC(=O)O)[C@H]1CC[C@H]2[C@@H]3[C@@H](O)C[C@@H]4C[C@H](O)CC[C@]4(C)[C@H]3CC[C@]12C, activity read “inactive”.
For COc1cc(NC(C)CCCN)c2ncccc2c1.O=P(O)(O)O.O=P(O)(O)O (centres unmarked), activity read “inactive”.
For Cc1onc(-c2ccccc2)c1C(=O)N[C@@H]1C(=O)N2[C@@H]1SC(C)(C)[C@@H]2C(=O)O, activity read “inactive”.
COc1cc(OC)c(C(=O)CCCN2CCCC2)c(OC)c1.Cl: activity “inactive”.

Mixed results
With O=c1nc(-c2ccccn2)sc2ccccc12 the Kd was 68.6 nM (MIF; binding).
CC(=O)O[C@H]1CC[C@]2(C)[C@H]3CC[C@]4(C)C(=CC[C@@]5(C(=O)O)CCC(C)(C)C[C@H]54)[C@]3(C)CC[C@H]2C1(C)C gave an IC50 of 35.7 µg/mL (HeLa; cell growth).
Nc1cnc(N2CCc3cc(S(=O)(=O)Nc4c(F)cc(Cl)cc4F)cc(N4CCCC4=O)c32)nc1 has an IC50 of 530 nM (MGAT2 (human); enzyme activity).
Under IC50, Nc1ccccc1NC(=O)c1ccc(CNc2nccc(-c3cccnc3)n2)cc1 is recorded as “inactive” (HDAC6; enzyme activity, inhibitor).
The IC50 of O=C(O)c1cc(-c2ccc(C3CCNCC3)cc2)c2ccc(-c3ccc(C(F)(F)F)cc3)cc2c1 is reported as 1390 nM (HRH2; radioligand binding; 10 µM).
CC(C)(O)c1cncc(-c2nc3ccc(F)cc3n2C2CC2)c1 has an IC50 of 2.3 nM (CYP11B2 (human); cellular activity).

Excerpt of the above (mixed results):
With O=c1nc(-c2ccccn2)sc2ccccc12 the Kd was 68.6 nM (MIF; binding).
